Assay results pooled from the literature.
Lines come from different studies, so protocols differ. “And” joins repeats or separate records; there may be more than shown. ± marks the error that the study gave.

Compound	assay	test system	conditions	how to read	endpoint	value
C[C@@H](Nc1cc(F)cc(F)c1)c1cc(C(=O)N(C)C)cc2c(=O)cc(N3CCOCC3)oc12	CTCAE v4, measured: macular rash	patients with advanced solid tumours	oral, dose not given, phase I dose finding		patients with related SAE	1.6%
Cc1cc(C(=O)NC(C)(C)COc2cccc3c2C(N)=NS(=O)(=O)N3)cc(C)n1		Sprague-Dawley rat, female, plasma	oral, 30 mg/kg		dose-normalised AUC(0-last)	1.26 ng·h/mL/mg/kg
N#Cc1ccc2c(c1)[C@H]1CCCN(C(=O)c3ccc4[nH]cnc4c3)[C@H]1C2		human males	80 mg, day 15		SHBG level	34.7 nmol/L
CNC(=O)c1cccc(-c2ccc(O[C@H]3O[C@H](CO)[C@@H](O)[C@H](O)[C@@H]3O)c(C)c2)c1		Sprague-Dawley rat, male, plasma	intravenous, 3 mg/kg		Vss	0.965 L/kg and 1.85 L/kg and 1.16 L/kg
Cc1cn(-c2cc(NC(=O)c3ccc(C)c(Nc4nccc(-c5cccnc5)n4)c3)cc(C(F)(F)F)c2)cn1	population PK model, typical value	human, both sexes, plasma	oral, dose not given		central volume of distribution (V1)	557 L
Cc1cc(Nc2ccc(S(F)(F)(F)(F)F)cc2)n2nc(C(C)(F)F)nc2n1		Plasmodium vivax malaria patients	oral, 800 mg		adverse event Pyrexia	57.1%
CN1CCN(c2cccc3c2CCN(C(=O)/C=C/c2c(-n4cnnn4)ccc(Cl)c2F)[C@@H]3C(=O)Nc2ccc(C(=O)O)cc2)C(=O)C1		healthy human subjects	intravenous infusion, 10 mg/h, 2 h		subjects with nausea	0%
Cc1c(-c2ccc(N3CCc4cccc(C(=O)Nc5nc6ccccc6s5)c4C3)nc2C(=O)O)cnn1CC12CC3(C)CC(C)(C1)CC(OCCNCC[C@H](O)CO)(C3)C2		anaesthetized male beagle dog	iv infusion, 0.1 mg/kg/min, 5 min		plasma concentration	386 ng/mL
O=C(Nc1nc2cccc(-c3ccc(CN4CCS(=O)(=O)CC4)cc3)n2n1)C1CC1		rheumatoid arthritis patients	oral, 100 mg twice daily, 4 weeks, regardless of relatedness		patients with immune system disorders	0%
CN(CC#N)C(=O)C[C@H](Nc1nc2ccccc2[nH]1)c1cccc(C(F)(F)F)c1		human	intravenous infusion, 1 mg/kg, 5 mg/mL formulation		terminal half-life	4.11 ± 0.37 h
CCCCOC(=O)N1CCN(C(=O)[C@H](CP(=O)(O)O)NC(=O)c2cc(N3CC[C@H](OC)C3)nc(-c3ccccc3)n2)CC1		human	subcutaneous, 8 mg, 1 h post-dose	baseline: baseline	change in QT interval	11.2 ± 20.4 ms
CNC(=O)c1cc(Oc2ccc(NC(=O)Nc3cc(C(C)(C)C)nn3-c3ccc4ncccc4c3)c(F)c2)ccn1	measured: worst grade 1	human	oral, dose not given, cycles 1 and 2, Medium AUC(0-4 h) subgroup		patients with nervous system disorder AE	36%
CCn1cc(C(=O)N2CCOCC2)c(=O)c2cc(NC3Cc4ccccc4C3)cnc21		human, fasted	oral tablet, 300 mg single dose, arithmetic mean		half-life	4.1 h
Cc1noc(C)c1-c1cc(C(O)(c2ccccn2)c2ccccn2)c2nc(C3CC3)[nH]c2c1		human patients, fasted, plasma	oral, 2 mg once daily, cycle 1 day 8		Ctau	180 ng/mL
C=CCN1CC(=O)N2[C@@H](Cc3ccc(O)cc3F)C(=O)N(Cc3cccc(N4CC(N5CCN(CC)CC5)C4)n3)C[C@@H]2N1C(=O)NCc1ccccc1		advanced solid tumour patients	oral, 80 mg twice daily, grade ≥3, dose-escalation		treatment-related nausea	0%
COCCOc1cnc2ccn([C@H](C)c3nnc4c(F)cc(-c5cnn(C)c5)cn34)c(=O)c2c1		patients, plasma	oral, 200 mg twice daily, day 1 predose, 400 per day		Ctrough	1.28 µg/mL
Cl.[2H]C([2H])([2H])CC(=O)c1cnc(NC(=O)C2CC2)cc1Nc1cccc(-c2ncn(C([2H])([2H])[2H])n2)c1OC	geometric mean	human	20 mg once daily, day 7, fasted, liquid, multiple dose		CL/F	15.3 L/h
CCCCCN1C[C@H](O)[C@@H](O)[C@H](O)[C@@H]1CO	LC-MS/MS	Hexb-/- mice, total, brain	300 mg/kg/day		mean brain concentration	282 ng/g

Some of these lines once more:
Compound	assay	test system	conditions	how to read	endpoint	value
CCCCCN1C[C@H](O)[C@@H](O)[C@H](O)[C@@H]1CO	LC-MS/MS	Hexb-/- mice, total, brain	300 mg/kg/day		mean brain concentration	282 ng/g
CN1CCN(c2cccc3c2CCN(C(=O)/C=C/c2c(-n4cnnn4)ccc(Cl)c2F)[C@@H]3C(=O)Nc2ccc(C(=O)O)cc2)C(=O)C1		healthy human subjects	intravenous infusion, 10 mg/h, 2 h		subjects with nausea	0%
